Measurements of several laboratories.
TMPRSS2: Transmembrane protease serine 2 (TMPRSS2, Homo sapiens, UniProt O15393)
UniProt O15393, sequence (whole entry, looked up): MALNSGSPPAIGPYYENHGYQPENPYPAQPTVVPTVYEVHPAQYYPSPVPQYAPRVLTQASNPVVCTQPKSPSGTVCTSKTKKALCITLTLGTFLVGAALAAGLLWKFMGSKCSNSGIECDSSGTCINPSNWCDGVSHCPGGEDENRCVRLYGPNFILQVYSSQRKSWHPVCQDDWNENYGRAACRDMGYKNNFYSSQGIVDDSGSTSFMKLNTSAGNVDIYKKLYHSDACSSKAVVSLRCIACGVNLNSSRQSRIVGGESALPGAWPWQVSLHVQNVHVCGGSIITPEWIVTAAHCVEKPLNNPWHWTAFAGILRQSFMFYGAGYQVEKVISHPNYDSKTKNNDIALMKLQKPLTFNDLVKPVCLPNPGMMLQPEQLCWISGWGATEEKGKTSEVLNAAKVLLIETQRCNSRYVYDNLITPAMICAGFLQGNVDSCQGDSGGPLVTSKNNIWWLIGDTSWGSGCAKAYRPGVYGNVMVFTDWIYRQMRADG
PFF0160c: Dihydroorotate dehydrogenase (quinone), mitochondrial (PFF0160c, Plasmodium falciparum, UniProt Q08210)
UniProt Q08210, sequence (whole entry, looked up): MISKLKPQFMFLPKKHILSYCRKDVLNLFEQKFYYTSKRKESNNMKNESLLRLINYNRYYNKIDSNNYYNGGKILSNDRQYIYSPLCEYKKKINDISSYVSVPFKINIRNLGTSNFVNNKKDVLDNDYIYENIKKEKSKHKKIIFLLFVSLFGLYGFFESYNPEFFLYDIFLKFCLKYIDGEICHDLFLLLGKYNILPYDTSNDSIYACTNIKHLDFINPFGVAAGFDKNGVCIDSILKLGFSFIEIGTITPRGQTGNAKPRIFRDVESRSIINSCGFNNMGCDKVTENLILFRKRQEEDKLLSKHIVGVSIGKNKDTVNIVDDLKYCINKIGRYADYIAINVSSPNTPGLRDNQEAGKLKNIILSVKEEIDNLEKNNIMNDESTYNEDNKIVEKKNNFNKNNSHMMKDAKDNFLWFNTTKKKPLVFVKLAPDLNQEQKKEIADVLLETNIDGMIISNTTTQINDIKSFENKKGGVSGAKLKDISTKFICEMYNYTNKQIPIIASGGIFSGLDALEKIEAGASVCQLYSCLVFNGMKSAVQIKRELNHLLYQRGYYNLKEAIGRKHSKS
UniProt P41143, sequence (whole entry, looked up): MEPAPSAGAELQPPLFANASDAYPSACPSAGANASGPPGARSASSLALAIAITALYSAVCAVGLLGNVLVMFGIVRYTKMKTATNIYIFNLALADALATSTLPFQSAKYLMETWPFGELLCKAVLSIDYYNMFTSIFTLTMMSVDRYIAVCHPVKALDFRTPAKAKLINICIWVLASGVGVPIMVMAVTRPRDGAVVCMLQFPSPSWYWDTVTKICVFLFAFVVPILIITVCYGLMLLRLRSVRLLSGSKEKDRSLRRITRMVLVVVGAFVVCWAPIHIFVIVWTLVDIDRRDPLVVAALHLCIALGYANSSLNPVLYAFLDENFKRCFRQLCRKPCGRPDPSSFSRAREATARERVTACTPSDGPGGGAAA
UniProt P07711, sequence (whole entry, looked up): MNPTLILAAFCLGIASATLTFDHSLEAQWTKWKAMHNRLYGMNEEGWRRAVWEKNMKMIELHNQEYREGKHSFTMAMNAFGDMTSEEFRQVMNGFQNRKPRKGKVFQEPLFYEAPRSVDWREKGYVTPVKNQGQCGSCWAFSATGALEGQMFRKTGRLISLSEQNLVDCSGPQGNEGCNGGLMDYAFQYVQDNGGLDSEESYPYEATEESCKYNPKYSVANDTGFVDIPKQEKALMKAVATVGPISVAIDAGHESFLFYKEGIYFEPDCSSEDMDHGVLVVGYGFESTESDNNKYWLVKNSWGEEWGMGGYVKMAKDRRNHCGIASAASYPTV
UniProt P22303, sequence (whole entry, looked up): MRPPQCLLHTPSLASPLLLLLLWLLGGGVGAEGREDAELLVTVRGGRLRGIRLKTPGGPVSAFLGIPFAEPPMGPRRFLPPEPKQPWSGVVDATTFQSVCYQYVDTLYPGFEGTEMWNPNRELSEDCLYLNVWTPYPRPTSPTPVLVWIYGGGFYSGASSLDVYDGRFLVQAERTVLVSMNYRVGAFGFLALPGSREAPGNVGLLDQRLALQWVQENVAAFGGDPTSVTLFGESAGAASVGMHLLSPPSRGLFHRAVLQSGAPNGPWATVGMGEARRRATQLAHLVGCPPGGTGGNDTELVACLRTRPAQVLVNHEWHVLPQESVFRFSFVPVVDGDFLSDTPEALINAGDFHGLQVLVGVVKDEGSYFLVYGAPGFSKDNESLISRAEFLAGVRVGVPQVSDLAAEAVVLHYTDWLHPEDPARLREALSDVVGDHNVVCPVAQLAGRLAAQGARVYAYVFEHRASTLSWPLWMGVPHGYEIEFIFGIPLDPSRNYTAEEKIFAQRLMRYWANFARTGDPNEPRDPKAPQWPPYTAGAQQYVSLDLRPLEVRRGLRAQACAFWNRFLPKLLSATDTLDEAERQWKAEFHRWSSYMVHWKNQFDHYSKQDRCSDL
UniProt P49840, sequence (whole entry, looked up): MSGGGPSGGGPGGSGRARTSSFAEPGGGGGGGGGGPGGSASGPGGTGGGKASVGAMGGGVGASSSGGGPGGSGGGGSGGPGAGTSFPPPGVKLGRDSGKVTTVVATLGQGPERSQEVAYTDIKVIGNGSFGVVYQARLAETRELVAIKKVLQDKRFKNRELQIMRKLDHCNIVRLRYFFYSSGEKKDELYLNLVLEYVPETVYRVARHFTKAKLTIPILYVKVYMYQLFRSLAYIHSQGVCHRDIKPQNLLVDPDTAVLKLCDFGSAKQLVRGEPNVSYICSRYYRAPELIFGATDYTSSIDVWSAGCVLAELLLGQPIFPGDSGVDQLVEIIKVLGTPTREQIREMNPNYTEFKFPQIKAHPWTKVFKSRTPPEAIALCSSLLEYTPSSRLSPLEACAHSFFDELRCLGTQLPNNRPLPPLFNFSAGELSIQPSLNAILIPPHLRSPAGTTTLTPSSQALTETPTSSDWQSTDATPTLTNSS
UniProt P08172, sequence (whole entry, looked up): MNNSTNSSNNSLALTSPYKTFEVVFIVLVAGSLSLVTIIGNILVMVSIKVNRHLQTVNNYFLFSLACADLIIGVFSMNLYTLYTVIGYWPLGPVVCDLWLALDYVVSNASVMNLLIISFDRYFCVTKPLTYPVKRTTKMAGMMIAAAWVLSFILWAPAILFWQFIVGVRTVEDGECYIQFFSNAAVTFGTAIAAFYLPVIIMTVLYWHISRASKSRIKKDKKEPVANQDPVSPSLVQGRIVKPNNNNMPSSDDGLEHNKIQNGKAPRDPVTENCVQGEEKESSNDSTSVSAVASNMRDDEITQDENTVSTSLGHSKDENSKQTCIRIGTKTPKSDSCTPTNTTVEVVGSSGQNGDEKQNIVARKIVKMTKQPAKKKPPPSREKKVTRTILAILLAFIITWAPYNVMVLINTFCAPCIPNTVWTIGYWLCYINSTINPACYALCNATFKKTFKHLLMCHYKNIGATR
UniProt P35462, sequence (whole entry, looked up): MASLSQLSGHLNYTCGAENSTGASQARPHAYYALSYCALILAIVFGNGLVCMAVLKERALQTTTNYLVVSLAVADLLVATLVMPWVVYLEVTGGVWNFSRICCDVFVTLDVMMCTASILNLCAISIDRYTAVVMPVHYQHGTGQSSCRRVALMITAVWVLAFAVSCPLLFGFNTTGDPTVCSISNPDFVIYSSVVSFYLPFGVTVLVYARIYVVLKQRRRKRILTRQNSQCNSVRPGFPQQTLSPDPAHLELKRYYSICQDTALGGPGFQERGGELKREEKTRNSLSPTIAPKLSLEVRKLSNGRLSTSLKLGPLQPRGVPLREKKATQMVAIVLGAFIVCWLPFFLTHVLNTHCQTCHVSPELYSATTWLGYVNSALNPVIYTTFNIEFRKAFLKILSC
UniProt Q15059, sequence (whole entry, unmodified, looked up): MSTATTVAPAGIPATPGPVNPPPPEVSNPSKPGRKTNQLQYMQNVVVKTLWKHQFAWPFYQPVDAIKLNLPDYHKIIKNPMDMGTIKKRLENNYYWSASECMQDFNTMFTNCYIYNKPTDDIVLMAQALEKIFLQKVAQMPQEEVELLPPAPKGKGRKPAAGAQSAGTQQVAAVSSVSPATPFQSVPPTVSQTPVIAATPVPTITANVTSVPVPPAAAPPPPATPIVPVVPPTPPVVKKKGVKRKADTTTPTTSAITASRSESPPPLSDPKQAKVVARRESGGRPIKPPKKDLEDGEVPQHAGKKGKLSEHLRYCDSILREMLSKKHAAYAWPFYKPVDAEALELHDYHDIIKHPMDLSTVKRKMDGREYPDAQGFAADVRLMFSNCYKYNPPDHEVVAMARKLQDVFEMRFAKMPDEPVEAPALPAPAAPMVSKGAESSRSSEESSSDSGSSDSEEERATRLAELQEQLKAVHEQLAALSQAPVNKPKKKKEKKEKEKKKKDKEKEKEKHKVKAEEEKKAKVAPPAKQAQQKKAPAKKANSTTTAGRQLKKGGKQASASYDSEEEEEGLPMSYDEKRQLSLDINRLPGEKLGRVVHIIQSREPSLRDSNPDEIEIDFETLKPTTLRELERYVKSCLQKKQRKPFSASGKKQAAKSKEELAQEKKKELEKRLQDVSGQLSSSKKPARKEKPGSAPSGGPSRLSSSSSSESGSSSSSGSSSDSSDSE
UniProt P41144, sequence (whole entry, looked up): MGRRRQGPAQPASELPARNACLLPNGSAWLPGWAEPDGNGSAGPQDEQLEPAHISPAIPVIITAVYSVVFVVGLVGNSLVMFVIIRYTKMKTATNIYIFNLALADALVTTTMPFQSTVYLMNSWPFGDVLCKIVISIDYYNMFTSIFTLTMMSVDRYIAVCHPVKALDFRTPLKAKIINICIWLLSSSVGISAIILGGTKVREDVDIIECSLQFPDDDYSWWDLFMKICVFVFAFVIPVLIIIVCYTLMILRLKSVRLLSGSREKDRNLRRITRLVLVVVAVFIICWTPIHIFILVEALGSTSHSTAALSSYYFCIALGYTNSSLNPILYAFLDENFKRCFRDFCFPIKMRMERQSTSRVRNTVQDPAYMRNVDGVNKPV

SMILES	target	assay	conditions	endpoint	value
CN1CCC[C@H]1c1cccnc1	DRD3 (Homo sapiens, UniProt P35462)	ligand displacement	50 µM	inhibition	-1.29%
CCc1ccc(N2C(=O)/C(=C3/C(=O)N(C)c4ccc(Cl)cc43)NC2=S)cc1	ACHE (Homo sapiens, UniProt P22303)	enzyme activity, inhibitor, Ellman	50 nM	inhibition	18%
CC(C)CC(=O)OC[C@H]1O[C@@](C#N)(c2ccc3c(N)ncnn23)[C@H](O)[C@@H]1O	AGTR1 (Homo sapiens, UniProt P30556)	cell-free assay	20 µM	inhibition	3%
NCCc1c[nH]c2ccc(O)cc12	Htr2a (Mus musculus, UniProt P35363)	G protein activation, agonist, BRET		Emax	100%
N=C(N)NCCC[C@@H](N)C(=O)N[C@H](CCC(N)=O)C(=O)N[C@@H](Cc1ccccc1)C(=O)N[C@@H](CCCNC(=N)N)C(=O)c1nc2ccccc2s1	TMPRSS2	enzyme activity, inhibitor	1 nM	activity vs control	26%
Cc1cc(OC(C)C(=O)N2CCc3ccccc32)ccc1Cl (stereo not shown)	PFF0160c	enzyme activity, inhibitor, absorbance		IC50	0.445 µM
NCC(O)c1ccccc1 (stereo not shown)	Procathepsin L (CTSL, Homo sapiens, UniProt P07711)	enzyme activity, inhibitor	100 µM	remaining activity	130%
C#Cc1n[nH]c2c(-c3cn([C@@H](C)c4ccccn4)c(=O)[nH]c3=O)cc(F)cc12	Cyclin-dependent kinase 2, with cyclin A (CDK2, Homo sapiens, UniProt P24941)	enzyme activity, inhibitor	0.1 µM	inhibition	3.6%
COc1ncccc1-c1cnn2ccc(N3CCN(C(=O)OC(C)C)CC3)nc12	DCLK3 (Homo sapiens, UniProt Q9C098)	binding, competition with immobilised ligand	1 µM	remaining binding	100%
CC(C)[C@H](NC(=O)[C@H](Cc1ccc(O)cc1)NC(=O)[C@@H](N)Cc1ccc(O)cc1)C(=O)N[C@@H](CCCNC(=N)N)C(=O)c1nc2ccccc2s1	TMPRSS2	enzyme activity, inhibitor	1 nM	activity vs control	101%
c1cncc([C@@H]2CCCN2)c1	CHRM2 (Homo sapiens, UniProt P08172)	ligand displacement	50 µM	inhibition	19.8%
CCOc1cccc(=O)c2c(C)n(Cc3ccc(Cl)cc3)c(C)c12	PFF0160c	enzyme activity, inhibitor, absorbance		IC50	> 10 µM
Nc1ncc(-c2nc(N3CCOCC3)nc(N3CCOCC3)n2)c(C(F)F)n1	PIK3CB (Homo sapiens, UniProt P42338)	binding, competition with immobilised ligand	10 µM	remaining binding	0%
Oc1cccc(N2C[C@H]3CC[C@@H](C2)N3CCCc2ccccc2)c1	OPRD1 (Homo sapiens, UniProt P41143)	cAMP, agonist		Emax	67.7%
CC(=O)N[C@@H](CCCNC(=N)N)C(=O)N[C@@H](CCC(N)=O)C(=O)N[C@@H](C)C(=O)N[C@H](CCCNC(=N)N)C(=O)c1nc2ccccc2s1	TMPRSS2	enzyme activity, inhibitor	1 nM	activity vs control	23%
OC[C@H]1CNCCN1C[C@@H]1CCCN1C[C@H](CC1CCCCC1)N1CCN(CCC23CC4CC(CC(C4)C2)C3)[C@H](Cc2ccc(O)cc2)C1	OPRK1 (Cavia porcellus, UniProt P41144)	ligand displacement, radioligand	0.5 µM, pH 7.5	remaining binding	103%
Cn1c(C(=O)[C@H](CCCNC(=N)N)NC(=O)[C@H](Cc2ccccc2)NC(=O)[C@H](CCC(N)=O)NC(=O)CCCCNC(=N)N)nc2ccccc21	TMPRSS2	enzyme activity, inhibitor	1 nM	activity vs control	100%
[2H]c1c([2H])c([C@]2([2H])CCCN2C(=O)C(C)(C)Oc2ccc3cn[nH]c3c2)c([2H])c([2H])c1C([2H])([2H])[2H]	GSK3A (Homo sapiens, UniProt P49840)	binding, competition with immobilised ligand	1 µM	remaining binding	74%
N=C(N)NCCC[C@H](NC(=O)[C@H](Cc1ccccc1)NC(=O)[C@H](CCC(N)=O)NC(=O)OCc1ccccc1)C(=O)c1nccs1	TMPRSS2	enzyme activity, inhibitor	1 nM	activity vs control	89%
CCN(CC)CCCC[C@H](NC(=O)[C@H](CC(C)C)NC(=O)[C@H](C)NC(=O)[C@H](Cc1ccccc1)NC(=O)c1ccc(C(C)(C)C)cc1)C(=O)N[C@@H](CO)C(=O)OC	Bromodomain-containing protein 3, BD2 (BRD3, Homo sapiens, UniProt Q15059)	thermal stability, DSF	25 µM	ΔTm	0.33 °C
N=C(N)NCCCCC(=O)N[C@@H](CCC(N)=O)C(=O)N[C@@H](Cc1c[nH]cn1)C(=O)N[C@@H](CCCNC(=N)N)C(=O)c1nc2ccccc2s1	TMPRSS2	enzyme activity, inhibitor	1 nM	activity vs control	84%
Cc1nn(C)cc1-c1nc2c(N3CCN(Cc4ccc(Cl)cc4)CC3)c(Cl)cnc2[nH]1	LRRK2 (Homo sapiens, UniProt Q5S007)	binding, competition with immobilised ligand	1 µM	remaining binding	100%

For quick reference, copied from above:
SMILES	target	assay	conditions	endpoint	value
Cc1cc(OC(C)C(=O)N2CCc3ccccc32)ccc1Cl (stereo not shown)	PFF0160c	enzyme activity, inhibitor, absorbance		IC50	0.445 µM
NCC(O)c1ccccc1 (stereo not shown)	Procathepsin L (CTSL, Homo sapiens, UniProt P07711)	enzyme activity, inhibitor	100 µM	remaining activity	130%
Oc1cccc(N2C[C@H]3CC[C@@H](C2)N3CCCc2ccccc2)c1	OPRD1 (Homo sapiens, UniProt P41143)	cAMP, agonist		Emax	67.7%
